# Assay results of several laboratories.
# Each line is one published result; not all experiments were run side by side. ± gives the spread as reported.
SMILES,system,setting,scale,endpoint,result
O=C(COc1ccc(Cl)cc1)NC12CC(c3nnc([C@H]4C[C@@H](OC(F)(F)F)C4)o3)(C1)C2,"healthy human volunteers fasted, plasma","oral, 200 mg single dose, geometric mean",,AUC,143 µM·h
Nc1ccn([C@@H]2O[C@H](CO)[C@@H](O)C2(F)F)c(=O)n1,"human patients, plasma","intravenous, 800 mg/m2, mean, after paricalcitol",,AUC extrapolated,0.513%
CC(C)(C(=O)N1CCOc2c(C#N)cncc2C1)C(F)F,"healthy humans, both sexes, plasma","oral, 40 mg single dose, 1.33-fold dose increase",baseline: 40 mg over 30 mg,AUC dose proportionality ratio,2.12
C=CC(=O)N1CCC[C@@H](n2c(=O)n(-c3ccc(Oc4ccccc4)cc3)c3c(N)nccc32)C1,human,"oral, 300 mg",baseline: fed over fasted,AUC fed/fasted ratio,1.12
N#Cc1ccc(C(c2ccc(C#N)cc2)n2cncn2)cc1,"human patients, plasma","oral, 12.5 mg daily",,AUC at steady state per dose,6.5 ± 1.83 µg·h/mL/mg
C=CC(=O)Nc1cc(Nc2nccc(-c3cn(C)c4ccccc34)n2)c(OC)cc1N(C)CCN(C)C,human patients,"oral, dose not given, cycle 3 day 1, safety run-in, geometric mean, together with: pemetrexed + carboplatin",,AUC at steady state,10.2 µM·h
COc1ccc2[nH]c([S@+]([O-])Cc3ncc(CO)c(OC)c3C)nc2c1,"human, dried plasma spots","dose not given, together with: rifampicin pretreatment",baseline: control over induction,AUC fold decrease,4.4 fold
Cc1cc(-c2nccc3c2ccn3CC(=O)Nc2ccc(-c3cnccn3)cn2)ccn1,"human, plasma","oral, 7 mg single dose, geometric mean",,AUC,0.61 µM·h
COc1ccc2nc([S@@+]([O-])Cc3ncc(C)c(OC)c3C)[nH]c2c1,"human male, dried plasma spots","dose not given, mean of (R)- and (S)-enantiomers, together with: fluvoxamine and voriconazole",baseline: inhibition over control,AUC fold change,8.1
N#Cc1cc(NC(=O)[C@H]2c3ccccc3C(=O)N(CC(F)(F)F)[C@@H]2c2cccnc2)ccc1F,"human, plasma","oral, 300 mg, median",,AUC,10200 ng·h/mL

# Excerpt of the above:
SMILES,system,setting,scale,endpoint,result
COc1ccc2[nH]c([S@+]([O-])Cc3ncc(CO)c(OC)c3C)nc2c1,"human, dried plasma spots","dose not given, together with: rifampicin pretreatment",baseline: control over induction,AUC fold decrease,4.4 fold
